{"data": "Measured values of several laboratories", "CASP3": "Caspase-3 (CASP3, Homo sapiens, UniProt P42574)", "CHRM3": "Muscarinic acetylcholine receptor M3 (CHRM3, Homo sapiens, UniProt P20309)", "note": "Each line is one published result; not all experiments were run side by side. Numbers after ± are the reported error.", "chain of UniProt P20309 (whole entry, looked up)": "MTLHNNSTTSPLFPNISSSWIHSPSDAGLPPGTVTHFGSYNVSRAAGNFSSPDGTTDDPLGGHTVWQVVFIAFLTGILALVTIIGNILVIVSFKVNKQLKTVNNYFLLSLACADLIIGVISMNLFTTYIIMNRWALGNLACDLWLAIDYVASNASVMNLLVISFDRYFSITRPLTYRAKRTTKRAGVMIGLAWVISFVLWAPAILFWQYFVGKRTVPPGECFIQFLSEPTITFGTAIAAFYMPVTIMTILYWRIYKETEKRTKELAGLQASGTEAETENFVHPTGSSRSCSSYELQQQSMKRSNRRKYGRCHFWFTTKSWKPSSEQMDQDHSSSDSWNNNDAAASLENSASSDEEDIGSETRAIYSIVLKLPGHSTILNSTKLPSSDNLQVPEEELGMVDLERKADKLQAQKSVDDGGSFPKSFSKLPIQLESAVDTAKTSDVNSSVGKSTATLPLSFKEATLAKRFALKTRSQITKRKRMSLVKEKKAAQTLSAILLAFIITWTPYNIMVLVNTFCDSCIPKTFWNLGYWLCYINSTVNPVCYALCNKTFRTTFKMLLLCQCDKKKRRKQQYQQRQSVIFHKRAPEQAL", "chain of UniProt P42574 (whole entry, looked up)": "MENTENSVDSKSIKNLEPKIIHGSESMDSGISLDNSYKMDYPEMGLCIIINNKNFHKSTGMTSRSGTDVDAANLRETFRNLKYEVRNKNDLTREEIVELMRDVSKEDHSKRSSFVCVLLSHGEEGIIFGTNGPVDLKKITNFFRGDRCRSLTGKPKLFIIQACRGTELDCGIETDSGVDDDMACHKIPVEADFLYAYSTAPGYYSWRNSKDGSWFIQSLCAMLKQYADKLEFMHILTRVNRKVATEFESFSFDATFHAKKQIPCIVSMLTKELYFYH", "chain of UniProt Q9R0C9 (whole entry, looked up)": "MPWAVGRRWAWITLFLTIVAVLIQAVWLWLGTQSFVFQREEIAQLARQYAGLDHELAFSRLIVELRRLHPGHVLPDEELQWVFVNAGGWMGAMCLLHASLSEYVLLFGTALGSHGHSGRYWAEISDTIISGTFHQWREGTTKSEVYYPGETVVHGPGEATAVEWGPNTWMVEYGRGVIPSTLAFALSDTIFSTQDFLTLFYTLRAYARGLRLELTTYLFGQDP", "chain of UniProt P11229 (whole entry, looked up)": "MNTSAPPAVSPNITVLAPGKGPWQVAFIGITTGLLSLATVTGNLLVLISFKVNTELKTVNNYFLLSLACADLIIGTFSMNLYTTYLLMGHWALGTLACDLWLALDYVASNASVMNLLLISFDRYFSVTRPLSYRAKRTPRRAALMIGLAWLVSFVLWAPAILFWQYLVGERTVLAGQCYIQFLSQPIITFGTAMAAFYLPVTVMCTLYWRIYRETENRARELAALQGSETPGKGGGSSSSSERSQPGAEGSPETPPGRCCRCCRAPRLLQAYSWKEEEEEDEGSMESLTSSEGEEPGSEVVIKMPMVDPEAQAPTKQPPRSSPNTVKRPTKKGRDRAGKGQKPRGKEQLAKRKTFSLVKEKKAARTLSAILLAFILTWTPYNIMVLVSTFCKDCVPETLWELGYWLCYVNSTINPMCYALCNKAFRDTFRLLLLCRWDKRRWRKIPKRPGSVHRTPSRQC", "chain of UniProt P05364 (whole entry, looked up)": "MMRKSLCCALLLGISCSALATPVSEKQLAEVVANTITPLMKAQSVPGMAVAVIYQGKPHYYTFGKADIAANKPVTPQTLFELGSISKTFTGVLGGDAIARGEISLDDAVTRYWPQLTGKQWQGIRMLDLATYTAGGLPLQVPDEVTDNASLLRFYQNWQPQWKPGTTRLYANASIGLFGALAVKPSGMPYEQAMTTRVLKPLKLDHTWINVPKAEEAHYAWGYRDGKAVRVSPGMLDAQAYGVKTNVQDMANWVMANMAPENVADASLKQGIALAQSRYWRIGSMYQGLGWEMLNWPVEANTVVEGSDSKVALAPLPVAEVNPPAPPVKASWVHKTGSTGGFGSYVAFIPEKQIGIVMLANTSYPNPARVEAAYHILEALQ", "chain of UniProt P30542 (whole entry, looked up)": "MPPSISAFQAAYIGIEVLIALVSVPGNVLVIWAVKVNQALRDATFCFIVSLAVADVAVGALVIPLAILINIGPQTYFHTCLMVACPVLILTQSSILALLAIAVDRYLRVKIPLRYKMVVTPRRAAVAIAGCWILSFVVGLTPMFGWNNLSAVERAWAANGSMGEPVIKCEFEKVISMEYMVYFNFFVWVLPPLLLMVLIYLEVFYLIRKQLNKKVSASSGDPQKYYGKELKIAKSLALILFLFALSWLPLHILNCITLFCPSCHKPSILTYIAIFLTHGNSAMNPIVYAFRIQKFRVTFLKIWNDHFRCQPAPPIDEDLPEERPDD", "chain of UniProt P61169 (whole entry, looked up)": "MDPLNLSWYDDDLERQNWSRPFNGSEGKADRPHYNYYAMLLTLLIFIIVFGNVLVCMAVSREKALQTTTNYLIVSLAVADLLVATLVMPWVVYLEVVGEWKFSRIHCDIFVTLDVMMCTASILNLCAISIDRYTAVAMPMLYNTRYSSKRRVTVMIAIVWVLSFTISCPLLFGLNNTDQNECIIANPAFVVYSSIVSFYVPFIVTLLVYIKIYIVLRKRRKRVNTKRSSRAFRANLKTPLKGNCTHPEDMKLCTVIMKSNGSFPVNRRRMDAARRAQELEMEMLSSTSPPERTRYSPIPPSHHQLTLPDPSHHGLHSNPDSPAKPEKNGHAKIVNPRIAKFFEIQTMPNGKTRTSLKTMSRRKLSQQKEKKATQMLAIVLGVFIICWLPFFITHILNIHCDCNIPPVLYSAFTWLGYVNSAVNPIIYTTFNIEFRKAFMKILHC", "chain of UniProt Q01726 (whole entry, looked up)": "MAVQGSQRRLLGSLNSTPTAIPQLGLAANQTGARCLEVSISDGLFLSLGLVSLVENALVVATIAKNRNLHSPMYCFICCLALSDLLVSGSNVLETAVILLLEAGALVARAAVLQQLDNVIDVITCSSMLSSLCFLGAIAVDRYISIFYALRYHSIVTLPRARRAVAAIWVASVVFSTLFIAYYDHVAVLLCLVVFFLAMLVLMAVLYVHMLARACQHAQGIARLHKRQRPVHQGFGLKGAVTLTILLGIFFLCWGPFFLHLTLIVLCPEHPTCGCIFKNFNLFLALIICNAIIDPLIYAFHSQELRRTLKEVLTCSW", "chain of UniProt Q12908 (whole entry, looked up)": "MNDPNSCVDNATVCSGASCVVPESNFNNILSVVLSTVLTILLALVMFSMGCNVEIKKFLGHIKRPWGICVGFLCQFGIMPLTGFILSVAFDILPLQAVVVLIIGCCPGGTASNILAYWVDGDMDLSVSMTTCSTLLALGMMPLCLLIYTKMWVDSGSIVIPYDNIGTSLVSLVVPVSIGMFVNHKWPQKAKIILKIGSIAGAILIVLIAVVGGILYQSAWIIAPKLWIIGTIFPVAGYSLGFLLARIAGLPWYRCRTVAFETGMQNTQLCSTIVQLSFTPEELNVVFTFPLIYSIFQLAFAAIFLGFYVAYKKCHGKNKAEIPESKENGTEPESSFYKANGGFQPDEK", "chain of UniProt Q9H227 (whole entry, looked up)": "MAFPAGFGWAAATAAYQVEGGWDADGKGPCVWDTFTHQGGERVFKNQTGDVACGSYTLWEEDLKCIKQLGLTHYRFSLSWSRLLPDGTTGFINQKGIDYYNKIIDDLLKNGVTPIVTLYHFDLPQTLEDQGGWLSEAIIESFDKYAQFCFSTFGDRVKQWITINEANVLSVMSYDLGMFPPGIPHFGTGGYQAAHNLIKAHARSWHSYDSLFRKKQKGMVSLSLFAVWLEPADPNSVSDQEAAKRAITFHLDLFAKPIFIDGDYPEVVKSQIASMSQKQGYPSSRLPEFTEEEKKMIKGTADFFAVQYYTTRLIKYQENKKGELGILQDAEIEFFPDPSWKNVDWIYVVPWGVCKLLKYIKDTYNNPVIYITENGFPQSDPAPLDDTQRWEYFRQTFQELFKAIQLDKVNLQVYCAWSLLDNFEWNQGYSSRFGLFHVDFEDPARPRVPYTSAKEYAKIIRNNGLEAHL", "chain of UniProt P16442 (whole entry, unmodified, looked up)": "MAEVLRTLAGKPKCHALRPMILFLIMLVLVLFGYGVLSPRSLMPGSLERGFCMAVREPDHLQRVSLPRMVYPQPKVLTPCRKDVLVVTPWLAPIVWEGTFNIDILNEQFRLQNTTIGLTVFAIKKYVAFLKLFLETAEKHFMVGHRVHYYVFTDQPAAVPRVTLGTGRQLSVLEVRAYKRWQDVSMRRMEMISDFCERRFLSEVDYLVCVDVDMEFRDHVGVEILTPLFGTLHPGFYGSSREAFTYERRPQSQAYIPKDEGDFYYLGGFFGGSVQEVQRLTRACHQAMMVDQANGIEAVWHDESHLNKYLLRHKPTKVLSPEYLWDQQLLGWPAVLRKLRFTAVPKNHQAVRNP", "chain of UniProt P08912 (whole entry, looked up)": "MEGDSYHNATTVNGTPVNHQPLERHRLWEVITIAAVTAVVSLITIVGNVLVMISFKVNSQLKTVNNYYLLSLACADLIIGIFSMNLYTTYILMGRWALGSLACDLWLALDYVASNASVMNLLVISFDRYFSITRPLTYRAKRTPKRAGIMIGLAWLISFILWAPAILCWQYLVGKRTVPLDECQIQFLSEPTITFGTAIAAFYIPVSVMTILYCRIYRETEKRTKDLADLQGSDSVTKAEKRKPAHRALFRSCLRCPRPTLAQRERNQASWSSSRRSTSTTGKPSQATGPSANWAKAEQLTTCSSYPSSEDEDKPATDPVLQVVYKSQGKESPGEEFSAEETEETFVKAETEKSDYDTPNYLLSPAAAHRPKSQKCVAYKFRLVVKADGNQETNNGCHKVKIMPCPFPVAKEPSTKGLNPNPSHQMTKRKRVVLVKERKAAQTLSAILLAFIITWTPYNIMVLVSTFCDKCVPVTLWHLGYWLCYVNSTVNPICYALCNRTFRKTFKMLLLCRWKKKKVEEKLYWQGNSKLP"}
{"Compound": "CC(=O)N[C@@H](CC(C)C)C(=O)N[C@@H](CC(=O)O)C(=O)N[C@H](C(=O)N1CCC[C@H]1C(=O)N[C@H](C=O)CC(=O)O)C(C)C", "target": "CASP3", "test": "enzyme activity, inhibitor, fluorescence", "conditions": "pH 7", "Ki [nM]": 6.92}
{"Compound": "CC1(C)SC(C(CCc2ccccc2)B(O)O)N[C@H]1C(=O)O (stereo partly shown)", "target": "Beta-lactamase (Enterobacter cloacae, UniProt P05364)", "test": "enzyme activity, inhibitor", "system": "P99", "conditions": "pH 7.50, 25 °C, added: cephalothin 0.2 mM substrate", "Ki [nM]": "620 ± 150"}
{"Compound": "CC(CCC(=O)NC(CCC(=O)Nc1ccccc1O)C(=O)O)C1CCC2C3C(O)CC4CC(O)CCC4(C)C3CCC12C (stereo not shown)", "target": "SLC10A2 (Homo sapiens, UniProt Q12908)", "test": "taurocholate uptake, inhibitor", "system": "ASBT-MDCK", "conditions": "10 min, added: taurocholate 2.5 µM", "Ki [nM]": 3540}
{"Compound": "NCc1cc(C(=O)NCCN2CCN(CCCCC3CCN(CC(=O)N4c5ccccc5NC(=O)c5ccccc54)CC3)CC2)cc(C(=O)NCCN2CCN(CCCCC3CCN(CC(=O)N4c5ccccc5NC(=O)c5ccccc54)CC3)CC2)c1", "target": "CHRM3", "test": "ligand displacement, radioligand", "Ki [nM]": 16.6}
{"Compound": "CC(C)COCCCCCN1C[C@H](O)[C@@H](O)[C@H](O)[C@@H]1CO", "target": "GBA3 (Homo sapiens, UniProt Q9H227)", "test": "enzyme activity, inhibitor", "Ki [nM]": 177000}
{"Compound": "CCCCOc1ccc(C(=O)OCC[N+]2(C)CC=CCC2)cc1 (stereo not shown)", "target": "CHRM1 (Homo sapiens, UniProt P11229)", "test": "ligand displacement, radioligand", "conditions": "cell membranes", "Ki [nM]": 2000}
{"Compound": "N#Cc1c(N)nc(SCc2ncc[nH]2)c(C#N)c1-c1cccc(O)c1", "target": "ADORA1 (Homo sapiens, UniProt P30542)", "test": "ligand displacement, radioligand", "conditions": "cell membranes", "Ki [nM]": 9.6}
{"Compound": "CC[C@H](C)[C@H](NC(C)=O)C(=O)N[C@H](C(=O)N[C@H](C(=O)N[C@@H](CCN)C(=O)N[C@H](C=O)CC(=O)O)C(C)C)[C@@H](C)O", "target": "CASP3", "test": "enzyme activity, inhibitor, fluorescence", "conditions": "pH 7", "Ki [nM]": 9120}
{"Compound": "C/C(=N\\OCCCN1CCOCC1)c1ccc(C(F)(F)F)cc1", "target": "Sigmar1 (Rattus norvegicus, UniProt Q9R0C9)", "test": "binding", "Ki [nM]": "3.11 ± 0.01"}
{"Compound": "O=C1Nc2ccccc2N(C(=O)CN2CCC(CCCCN3CCN(CCOC(=O)C4c5ccccc5Oc5ccccc54)CC3)CC2)c2ccccc21", "target": "CHRM3", "test": "ligand displacement, radioligand", "Ki [nM]": 7.59}
{"Compound": "CC[C@H](C)[C@H](NC(=O)CN)C(=O)N[C@H](C(=O)N[C@@H](CC(N)=O)C(=O)N[C@H](C(=O)N[C@@H](CC(C)C)C(=O)N[C@@H](CCC(N)=O)C(=O)N[C@@H](CCCCN)C(=O)N[C@@H](Cc1ccc(O)cc1)C(=O)N[C@@H](Cc1ccc(O)cc1)C(=O)N[C@@H](CO)C(=O)N[C@@H](CCCNC(=N)N)C(=O)N[C@H](C(=O)N[C@@H](CCC(N)=O)C(=O)NCC(=O)NCC(=O)N[C@@H](CCC(N)=O)C(=O)N[C@@H](CO)C(=O)N[C@@H](C)C(=O)N[C@H](C(=O)N[C@@H](CC(C)C)C(=O)N[C@@H](CO)C(=O)N[C@@H](CO)C(=O)N[C@@H](CC(C)C)C(=O)N1CCC[C@H]1C(=O)N[C@@H](CCC(N)=O)C(=O)N[C@@H](CCC(=O)O)C(=O)N[C@@H](CCC(=O)O)C(=O)N[C@@H](CCC(N)=O)C(=O)N[C@H](C(=O)NCC(=O)N[C@@H](CCCCN)C(=O)N[C@@H](CO)C(=O)N[C@@H](CO)C(=O)N[C@H](C(=O)N[C@@H](CCCNC(=N)N)C(=O)NCC(=O)N[C@@H](CCCNC(=N)N)C(=O)N[C@@H](CCCCN)C(=O)N[C@@H](CO)C(=O)N[C@@H](CO)C(=O)N[C@@H](CCC(N)=O)C(=O)N[C@@H](CCC(N)=O)C(=O)N[C@@H](CCC(N)=O)C(=O)N[C@@H](CCC(N)=O)C(N)=O)[C@@H](C)O)[C@@H](C)CC)C(C)C)C(C)C)[C@@H](C)O)[C@@H](C)CC", "target": "MC1R (Homo sapiens, UniProt Q01726)", "system": "HEK-293T transfected", "conditions": "2 h, 37 °C, added: Eu-NDP-MSH", "Ki [nM]": "> 5000"}
{"Compound": "O=Cc1ccc(-c2cn([C@@H]3O[C@H](COP(=O)(O)OP(=O)(O)O[C@H]4O[C@H](CO)[C@H](O)[C@H](O)[C@H]4O)[C@@H](O)[C@H]3O)c(=O)[nH]c2=O)s1", "target": "ABO (Homo sapiens, UniProt P16442, G268A/L266G)", "test": "N-acetylgalactosaminyltransferase activity, inhibitor, radiochemical", "conditions": "added: 2 µM UDP-GalNAc donor, 100 µM acceptor", "Ki [nM]": 520}
{"Compound": "CN1CCN(Cc2ccc(OCCCN3CCN(c4cccc5sccc45)CC3)cc2)CC1", "target": "Drd2 (Rattus norvegicus, UniProt P61169)", "test": "cell-free assay, radioligand", "Ki [nM]": 86.2}
{"Compound": "O=c1[nH]cnc2c([C@@H]3N[C@H](COP(=O)(O)O)[C@@H](O)[C@H]3O)c[nH]c12", "target": "Hypoxanthine-guanine phosphoribosyltransferase (Trypanosoma cruzi, UniProt Q4DGA3)", "Ki [nM]": "180 ± 30"}
{"Compound": "CCC(=O)NC1CN(CCCCC2CCN(CC(=O)N3c4ccccc4NC(=O)c4ccccc43)CC2)CCN(CCCOc2nsnc2C2=CCCN(C)C2)C1 (stereo not shown)", "target": "CHRM5 (Homo sapiens, UniProt P08912)", "test": "ligand displacement, radioligand", "Ki [nM]": 100}
{"Compound": "Nc1ncnc2c1ncn2[C@@H]1O[C@H](C(=O)NC2COC2)[C@@H](O)[C@H]1O", "target": "ADORA3 (Homo sapiens, UniProt P0DMS8)", "test": "ligand displacement, radioligand", "conditions": "cell membranes", "Ki [nM]": 300}
{"note": "Excerpt of the above:"}
{"Compound": "N#Cc1c(N)nc(SCc2ncc[nH]2)c(C#N)c1-c1cccc(O)c1", "target": "ADORA1 (Homo sapiens, UniProt P30542)", "test": "ligand displacement, radioligand", "conditions": "cell membranes", "Ki [nM]": 9.6}
{"Compound": "CC[C@H](C)[C@H](NC(C)=O)C(=O)N[C@H](C(=O)N[C@H](C(=O)N[C@@H](CCN)C(=O)N[C@H](C=O)CC(=O)O)C(C)C)[C@@H](C)O", "target": "CASP3", "test": "enzyme activity, inhibitor, fluorescence", "conditions": "pH 7", "Ki [nM]": 9120}
